Assay results pooled from the literature.
Numbered parts are unrelated; each lists some results of a single study.

Set 1
Target: Sal-like protein 4, full length isoform B (SALL4, Homo sapiens, UniProt Q9UJQ4-2, residues 1-616)
Technique: universal PBM
Form: double-stranded DNA, one strand shown
Medium: in vitro
Concentration: not given
Notes: 8-mer, flanks averaged, mean of replicates
Reading: higher = stronger binding
Sequence	E-score
AGGCTACG	-0.178
CAAGCCAG	-0.233
ACTTGTGG	-0.0214
GATATTCC	0.122
CGGCCTAA	-0.146
ACTAGAGA	0.0835
AGAATTAT	0.377
CCTACTCC	-0.11
GGCCCCAC	-0.26
GAGAGCCC	-0.264
AATAGGCG	0.127
AACCCGAG	-0.102
CTCCGAAG	-0.248
CTTGGTCA	0.0325
GGCGTTCA	-0.0741
AAGCAGCT	-0.166
ACCGATCT	-0.183
AAAGGCAA	0.134
AGTGACAC	-0.0249
TCAACAAA	0.145
AATGGTCA	0.126
GAGACCGC	-0.349

Set 2
Target: Histone acetyltransferase KAT6A, winged helix 1, GST fusion (KAT6A, Homo sapiens, UniProt Q92794, residues 1-85)
Technique: protein binding microarray
Form: double-stranded DNA, one strand shown
Medium: in vitro
Concentration: not given
Notes: 8-mer, flanks averaged, mean of 2 arrays, mostly near background
Reference: not given
Reading: higher = stronger binding
Construct (chain): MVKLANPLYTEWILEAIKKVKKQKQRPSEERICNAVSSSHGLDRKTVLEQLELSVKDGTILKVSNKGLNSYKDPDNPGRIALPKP
Sequence	E-score
GTCGAGAC	-0.0334
CTAGGACA	-0.142
AAGGGTAG	-0.0039
TTCACCAA	-0.0958
AGAGGCAA	-0.323
AAAGGTCA	-0.0953
AATATTTG	-0.165
GAACGAAA	-0.148
AGGGAGTG	-0.208
CCGAAACA	-0.0339
ATTTAGGG	0.00771
TACCGTGA	0.212
AAGGCGGC	0.243
CAGGACGA	-0.131
CACATTGC	0.0859
ATCGGGAA	0.246
GGTCCCAC	0.0127
CAGGTAGC	0.0105
AAAGTCAG	-0.00426
CCGCATAG	0.195
ACTGCTCG	-0.132
AGCGGGGG	0.176
TCATCCGA	0.0152
ATCGGCCC	0.307
GTAAAAGA	-0.112

Set 3
Organism: Saccharomyces cerevisiae
Read-out: binding
Technique: yeast competitive growth sequencing
Form: peptide
Strain: cyclin D1-Cln2 strain
Medium: peptide tiling library
Notes: pooled screen
Reading: direction not given
Molecule	enrichment score
AGSAKRRLFGEDPPKE	0.489
LAKRALKYTD	-1.32
MNQELLSVGSKRRRTG	1.53
SFLIEYEFLIPPSLKP	1.3
ISRLFPPRTPGWHQLQ	-4.15
TSSAQRRLEIPSGGAD	-0.45
IQKKLRFEDTLEFVGF	-1.04
CFRCLLFSFSGRSGVE	-2.22
TRRRLFVENDSP	-0.784
PLRKAKRARLCSSSSS	1.11
RSLKLDGLLEEN	-0.478
KRRLDLETDHQY	-0.263
PFSENVSAVQKLDFSD	2.18
RVSGLLSWTLSRVLWL	-1.71
LKGRRLVFDN	-0.284

Set 4
Target: TAR DNA-binding protein 43, full length, His tag (TARDBP, Homo sapiens, UniProt Q13148, residues 1-414)
Technique: RNA Bind-n-Seq
Form: RNA
Medium: in vitro
Concentration: 20 nM
Notes: 6-mer, flanks averaged, single round
Added: 150 mM LiCl
Reference: input library
Reading: higher = stronger binding
Sequence	6-mer enrichment (R)
ACUAGU	0.881
UUGUAG	1.11
AUAAUU	1.1
AGAACC	0.921
GGCGGG	1.31
CAUCAA	0.819
CCAGUU	0.954
CGCUCC	0.925
CAAUCC	0.833
GGCAAG	1.03
UCGAAA	0.784
AGUAAG	0.975
UAGAAG	0.966
AGGUAA	0.894
CCCAAG	0.937
GAUAUA	0.902
CGCCAU	0.907
GGCAUC	0.886
ACACUA	0.88
CCAUGG	0.951
CCACUU	0.939
UCGUCC	0.956
GUGCCA	1.01
CGACAG	0.809
UCAUAU	0.919

Set 5
Target: Ras GTPase-activating protein-binding protein 1, RRM domain (G3BP1, Homo sapiens, UniProt Q13283)
Sequence of UniProt Q13283 (whole entry, looked up): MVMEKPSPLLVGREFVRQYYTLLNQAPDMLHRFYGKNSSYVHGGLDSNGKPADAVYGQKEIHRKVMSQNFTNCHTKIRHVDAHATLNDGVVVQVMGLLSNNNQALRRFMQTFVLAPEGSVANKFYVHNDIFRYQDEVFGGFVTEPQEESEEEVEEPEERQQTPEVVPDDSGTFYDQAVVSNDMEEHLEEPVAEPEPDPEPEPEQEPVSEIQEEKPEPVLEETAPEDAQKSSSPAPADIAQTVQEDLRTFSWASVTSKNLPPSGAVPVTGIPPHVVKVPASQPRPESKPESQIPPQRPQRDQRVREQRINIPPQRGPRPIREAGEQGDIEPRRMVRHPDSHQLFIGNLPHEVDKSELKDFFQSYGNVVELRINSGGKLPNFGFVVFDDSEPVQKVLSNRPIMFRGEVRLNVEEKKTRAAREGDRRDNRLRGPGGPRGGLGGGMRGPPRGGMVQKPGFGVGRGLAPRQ
Technique: RNA Bind-n-Seq
Form: RNA
Medium: in vitro
Concentration: 1 µM
Notes: whole 134-nt RNA, ends assumed
Added: 150 mM KCl
Reference: input library
Reading: higher = stronger binding
Sequence	log2 enrichment
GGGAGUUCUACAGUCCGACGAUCCUGUGCUACACAUCGUAUGUACCGAAUCGGGGAAAAAAAGGGGAAAAAAAGGAAAAAAAGGGAAAGUAUUAUGUUACGCCGUUCGGAUCUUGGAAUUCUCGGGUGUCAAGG	0.147
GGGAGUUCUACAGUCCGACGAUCCAAGUCCUGUGCUACACAUCGUAUGUACCGAAUCGGGCCCGGCCCGGGGCCCGGGAAAGUAUUAUGUUACGCCGUUCGGAUCUGCACUUCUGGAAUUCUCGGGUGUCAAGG	-0.751
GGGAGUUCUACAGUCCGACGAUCAAGUCCUGUGCUACACAUCGUAUGUACCGAAUCGGAAAAAAAGGUGGUUUUUUUGGAAAGUAUUAUGUUACGCCGUUCGGAUCUGCACUUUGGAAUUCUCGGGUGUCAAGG	-0.154
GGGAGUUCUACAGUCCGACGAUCUCCUGUGCUACACAUCGUAUGUACCGAAUCGGGGAAAAAGGGGAGGGGAAAAAAAGGGGAAAGUAUUAUGUUACGCCGUUCGGAUCUGCAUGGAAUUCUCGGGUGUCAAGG	0.604
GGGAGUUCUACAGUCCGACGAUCCCUCAAGUCCUGUGCUACACAUCGUAUGUACCGAAUCGGAAAGGAAAGGAGGAAAGUAUUAUGUUACGCCGUUCGGAUCUGCACUUCCAGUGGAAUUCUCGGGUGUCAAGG	-0.186
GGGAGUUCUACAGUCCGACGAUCAGUCCUGUGCUACACAUCGUAUGUACCGAAUCGGAAAAAGGAAAAAGGGGAAAAAGGAAAGUAUUAUGUUACGCCGUUCGGAUCUGCACUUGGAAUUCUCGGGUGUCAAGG	-0.0949
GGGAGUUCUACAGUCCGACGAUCUAACUUUAGAGGAGGAUCUGAUGGAUAUGGCAGUGGACGCGGAUUUGGGGAUGGCUAUAAUGGGUAUGGAGGAGGACCUGGAGGUGGCAAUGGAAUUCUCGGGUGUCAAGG	-0.511
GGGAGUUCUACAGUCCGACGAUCACCAUGCAGGUGGGCAUCUUUGGGAAGUGGGGCAAGGGGGGGAUAAAGAGGGGGGUAACACUUUGGGAACAGGUGGUCCCAGGUCGUUUCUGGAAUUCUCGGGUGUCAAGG	-0.215
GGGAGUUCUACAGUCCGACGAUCUCCUCAAGUCCUGUGCUACACAUCGUAUGUACCGAAUCGGUGGUGGGUGGGGAAAGUAUUAUGUUACGCCGUUCGGAUCUGCACUUCCAGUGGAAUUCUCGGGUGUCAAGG	-0.0608

Set 6
Target: RNA binding protein fox-1 homolog 2, RRM domain, GST-SBP tag (RBFOX2, Homo sapiens, UniProt O43251-10, residues 100-194)
Technique: RNA Bind-n-Seq
Form: RNA
Medium: in vitro
Concentration: 365 nM
Notes: natural RNA segment, single round, ends assumed
Reference: no-protein control
Reading: higher = stronger binding
Sequence	RBNS enrichment (R)
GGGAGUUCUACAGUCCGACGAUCGUGUCCGGGUGCUCAGCUCCUGGGUCCCAGGGCAGUGGGACAGCUCCCAGGCUCUUCUCAUCAGAGACUUCAGUUUGGGUGGGGAGUCUGCAGGUCAGGGAAGGUUCUGGUGGAAUUCUCGGGUGCCAA	0.601
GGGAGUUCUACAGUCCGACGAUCGUAUUGAAUUAUCUGUGGAAUGCAUUGUGAACUGUAAAGCAAAGUAUCAAUAAAGCUUAUAGACUUACCUUUGUGUUUAGUGUUUUAGUUUCAUGAAUGCACAGCAAAAAUGGAAUUCUCGGGUGCCAA	0.731
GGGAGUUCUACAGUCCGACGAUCAAUAAAUGAAGAAAUACAUUUUAAGUAGAUAUCAGUUACUUUUAAUUUGUAUGGUAAAUAUAUACAUAGGUCCAUUUCAGAAAAAAAAUCAUGAUUGUAAAGGGAAUAUAUGGAAUUCUCGGGUGCCAA	0.497
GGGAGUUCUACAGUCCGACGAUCCCCCCGCCACCUCCCAGGCACCGUAGUUGUGAGAAUCAGAUGUGAUCAUGUGUGCAGAUGUCCUGUGAGGAGGGAGCAUAAAGCACUGUGAAAAUGUAGCAUGCUGUCUAUGGAAUUCUCGGGUGCCAA	9.17
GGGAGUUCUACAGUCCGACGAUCUUGCCACAUCAAGAUUUUAGGGAAGGGGGGUAUAUGUGUAGUAGGGAUGCCGUUUGAAAACAGGCACUCUUCCCCUGAGGAUGGGAAAGGAGCUCUUCAGUUGGAGAUCUUGGAAUUCUCGGGUGCCAA	1.32
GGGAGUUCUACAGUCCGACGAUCACUUAAGAAUACUCCUGGCAUAAGUUACUAGAAGUGGUGUGUAUAUAUUCGGGGGAGUAAGGAAAUAAGUUAUGUUUAAUAAUAGCUUAAGAUGACCAGCAAUGCCUGUAUGGAAUUCUCGGGUGCCAA	1.12
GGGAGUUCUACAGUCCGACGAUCGUUGUGGGACAGAUGGAUUUUAUCAUUGAAUGGCUCUUCUCAGUGUAUGGAUACUGGGUUGGGCCUUGGGUUUUACUCACUUUCAGUAUAGCUUGCCAGUAUUGUUAAGGUGGAAUUCUCGGGUGCCAA	2.65
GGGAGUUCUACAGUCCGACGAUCGGAACCUAAGAGCAUCGGUUGGAGUGUGACCUCUGAUGCCCCUGCAUUCCCGCCACUGUGUCUCUGUGUAUUGAAAGCCUCUCCUGUGACCACAGCCUGUGUUGACAGAUUGGAAUUCUCGGGUGCCAA	0.904

Repeated from above (set 6):
Sequence	RBNS enrichment (R)
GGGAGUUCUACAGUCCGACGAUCGGAACCUAAGAGCAUCGGUUGGAGUGUGACCUCUGAUGCCCCUGCAUUCCCGCCACUGUGUCUCUGUGUAUUGAAAGCCUCUCCUGUGACCACAGCCUGUGUUGACAGAUUGGAAUUCUCGGGUGCCAA	0.904
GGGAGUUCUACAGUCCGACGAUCGUUGUGGGACAGAUGGAUUUUAUCAUUGAAUGGCUCUUCUCAGUGUAUGGAUACUGGGUUGGGCCUUGGGUUUUACUCACUUUCAGUAUAGCUUGCCAGUAUUGUUAAGGUGGAAUUCUCGGGUGCCAA	2.65
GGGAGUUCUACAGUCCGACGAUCGUAUUGAAUUAUCUGUGGAAUGCAUUGUGAACUGUAAAGCAAAGUAUCAAUAAAGCUUAUAGACUUACCUUUGUGUUUAGUGUUUUAGUUUCAUGAAUGCACAGCAAAAAUGGAAUUCUCGGGUGCCAA	0.731
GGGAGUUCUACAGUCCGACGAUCAAUAAAUGAAGAAAUACAUUUUAAGUAGAUAUCAGUUACUUUUAAUUUGUAUGGUAAAUAUAUACAUAGGUCCAUUUCAGAAAAAAAAUCAUGAUUGUAAAGGGAAUAUAUGGAAUUCUCGGGUGCCAA	0.497
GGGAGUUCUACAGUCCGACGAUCCCCCCGCCACCUCCCAGGCACCGUAGUUGUGAGAAUCAGAUGUGAUCAUGUGUGCAGAUGUCCUGUGAGGAGGGAGCAUAAAGCACUGUGAAAAUGUAGCAUGCUGUCUAUGGAAUUCUCGGGUGCCAA	9.17
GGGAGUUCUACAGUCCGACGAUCGUGUCCGGGUGCUCAGCUCCUGGGUCCCAGGGCAGUGGGACAGCUCCCAGGCUCUUCUCAUCAGAGACUUCAGUUUGGGUGGGGAGUCUGCAGGUCAGGGAAGGUUCUGGUGGAAUUCUCGGGUGCCAA	0.601
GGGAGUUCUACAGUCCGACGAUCUUGCCACAUCAAGAUUUUAGGGAAGGGGGGUAUAUGUGUAGUAGGGAUGCCGUUUGAAAACAGGCACUCUUCCCCUGAGGAUGGGAAAGGAGCUCUUCAGUUGGAGAUCUUGGAAUUCUCGGGUGCCAA	1.32
